Experimental data of several laboratories.
Protocols differ between the studies behind these lines.
Sample: plasma
Route: oral

Compound	test system	conditions	Tmax
CNC(=O)c1ccc(-c2cnc3ncc(Cc4ccc5ncccc5c4)n3n2)cc1F	human	100 mg twice daily, multiple doses, steady state, patients	2.86 h
C[C@H]1[C@H](F)C[C@@H](C(=O)NCc2cc(-c3cnc(C(F)(F)F)nc3)ncc2C(F)(F)F)N1S(=O)(=O)c1ccc(F)cc1	human	single dose, fasted, healthy volunteers	3.5 to 7 h
COc1cccc(-c2ccc(NC(=O)C3=C(C(=O)O)CCC3)c(F)c2)c1	male human	30 mg, single dose, fasted, healthy volunteers	5 h
CS(=O)(=O)n1cc2c(n1)CN([C@H]1CO[C@H](c3cc(F)ccc3F)[C@@H](N)C1)C2	male human	10 mg, single dose, fed	4 h
C[C@@H]1CCC[C@H](n2cnc(-c3cc(Cl)ccc3-n3cc(Cl)nn3)cc2=O)c2cc(ccn2)-c2c(cnn2C(F)F)NC1=O	human	500 mg, single dose, fasted, healthy volunteers	3 h
CNc1nc(Nc2ccc(-n3cnc(C)n3)c(OC)c2)nc2c1CC[C@H]2c1ccc(F)cc1	human	200 mg, multiple doses, once daily	5 h
CC#CC(=O)N[C@H]1CCCN(c2c(F)cc(C(N)=O)c3[nH]c(C)c(C)c23)C1	human	0.3 mg, single dose	0.5 h
CN(C)C/C=C/C(=O)Nc1cc2c(Nc3ccc(F)c(Cl)c3)ncnc2cc1O[C@H]1CCOC1	human	40 mg, multiple doses, once daily, steady state, patients	2.95 h
NC(=O)c1cnc2[nH]ccc2c1N[C@@H]1[C@@H]2CC3C[C@H]1C[C@@](O)(C3)C2	male human	20 mg, single dose, fasted, healthy volunteers	1 h
CC(=O)N[C@H]1CC[C@H](NC(=O)CN2CCN(c3nncc(-c4ccc(C)cc4)n3)CC2)CC1	male human	100 mg, single dose, fasted, healthy volunteers	1.5 h
CNCc1ccc(-c2[nH]c3cc(F)cc4c3c2CCNC4=O)cc1	human	600 mg, single dose, fed	7.83 h
Nc1ncc(-c2cnn(CCO)c2)c2scc(-c3ccc(NC(=O)Nc4cccc(F)c4)cc3)c12	human	80 mg, patients	3 h
CN(C)Cc1c(C(=O)NCCOc2ccc(C(=O)NO)cc2)oc2ccccc12	human	80 mg, single dose, patients	0.99 h
Nc1ccc(-c2nc([C@H]3CCc4cc(-c5cc(Cl)ccc5-n5cnnn5)cc(=O)n43)c(F)[nH]2)c(F)n1	human	150 mg, single dose, fasted, healthy volunteers	4 h
O=C(c1nc2n(n1)[C@H](c1ccccc1)C[C@@H]2F)C1CC1	human	75 mg, single dose, fasted, healthy volunteers	3 h
O=C(c1cccnc1-c1ccncc1)N1CCC(O)(Cc2ccccc2)CC1	human	400 mg, multiple doses, once daily, healthy volunteers	0.33 h
C[C@H]1CO[C@@H]2Cn3cc(C(=O)NCc4ccc(F)cc4F)c(=O)c(O)c3C(=O)N12	human	30 mg, single dose, fed	3.01 h
O=C(O)C[C@H](O)C[C@H](O)/C=C/c1c(C2CC2)nc2ccccc2c1-c1ccc(F)cc1	female human	2 mg, multiple doses, once daily	0.75 h
Nc1cc(F)ccc1NC(=O)c1ccc(CNC(=O)/C=C/c2cccnc2)cc1	human	40 mg, patients	2.42 h
C[C@@H](N)c1cc(Cl)ccc1Cn1c(=S)[nH]c(=O)c2[nH]ccc21	human	2.5 mg, multiple doses, once daily, healthy volunteers	1.77 h
O=C(O)COC[C@H]1CC[C@H](COC(=O)N(c2ccccc2)c2ccc(Cl)cc2)CC1	human	20 µg, multiple doses, twice daily, steady state	1 h
C[C@H](N)C(=O)N1C[C@H](CCCB(O)O)[C@](N)(C(=O)O)C1	human	150 mg twice daily, multiple doses, patients	2 h
C#C[C@]1(CO)O[C@@H](n2cnc3c(N)nc(F)nc32)C[C@@H]1O	human	100 mg, single dose, fasted	0.5 h
Cc1cn([C@H]2C[C@H](N=[N+]=[N-])[C@@H](CO)O2)c(=O)[nH]c1=O	male human	600 mg, single dose	≤ 0.583 h
CCCOc1ccc([C@H]2CNC(=O)N2c2ccc3[nH]cnc3c2)cc1	human	1800 mg, single dose, fasted, healthy volunteers	1.26 h
CS(=O)(=O)n1cc2c(n1)CN([C@H]1CO[C@H](c3cc(F)ccc3F)[C@@H](N)C1)C2	male human	50 mg, single dose, fasted	1 h

Excerpt of the above:
Compound	test system	conditions	Tmax
C[C@@H](N)c1cc(Cl)ccc1Cn1c(=S)[nH]c(=O)c2[nH]ccc21	human	2.5 mg, multiple doses, once daily, healthy volunteers	1.77 h
CC#CC(=O)N[C@H]1CCCN(c2c(F)cc(C(N)=O)c3[nH]c(C)c(C)c23)C1	human	0.3 mg, single dose	0.5 h
C#C[C@]1(CO)O[C@@H](n2cnc3c(N)nc(F)nc32)C[C@@H]1O	human	100 mg, single dose, fasted	0.5 h
